# Experimental data gathered from unrelated publications.
# Each line is one published result; not all experiments were run side by side. ± marks the error that the study gave.
# Cell line: HCT-116
Compound,assay,conditions,IC50
O=C(/C=C/c1ccc(F)cc1)c1nc2ccccc2n1Cc1cn([C@@H]2O[C@H](CO)[C@H](O)[C@H](O)[C@H]2O)nn1,"cell growth or viability, LDH",48 h,5.3 µM
COc1ccc(-n2c(SCC(=O)NNC(=O)Nc3ccccc3)nc3ccccc3c2=O)cc1,,,4.42 ± 0.2 µM
O=c1c(/C=C/c2ccccn2)nc2ccccc2n1Cc1ccccc1,"cell growth or viability, MTT",72 h,16.1 µM
Cc1ccc(NCC(=O)n2ncc3c2ncn2nc(SCC(O)CO)nc32)cc1 (stereo not drawn),"cell growth or viability, MTT",48 h,0.038 µM
COc1ccc(-n2c(SCC(=O)NNC(=O)Nc3ccc(F)cc3)nc3ccccc3c2=O)cc1,,,2.83 ± 0.1 µM
CC(=O)OCC(CSc1nc2c3cnn(C(=O)CNc4ccc(F)cc4)c3ncn2n1)OC(C)=O (stereo not drawn),"cell growth or viability, MTT",48 h,0.007 µM
O=C(CSc1nc2ccccc2c(=O)n1-c1ccc(Cl)cc1)NNC(=O)Nc1ccc(C(F)(F)F)cc1Cl,,,28.8 ± 2.1 µM
O=c1[nH]c2ccccc2nc1/C=C/c1ccc(F)cc1,"cell growth or viability, MTT",72 h,21.3 µM
COc1cc(O)c2c(c1)O[C@H](c1ccc(O)c(O)c1)[C@@H](O)C2=O,"cell growth or viability, MTT",48 h,34 µg/mL
O=C(CNc1ccc(F)cc1)n1ncc2c1ncn1nc(SCC(O)CO)nc21 (stereo not drawn),"cell growth or viability, MTT",48 h,0.664 µM
Cc1ccc(NC(=O)NNC(=O)CSc2nc3ccccc3c(=O)n2-c2ccc(C)cc2)cc1,,,69.4 ± 3.7 µM
Cc1ccc(NCC(=O)n2ncc3c2ncn2nc(SCC#N)nc32)cc1,"cell growth or viability, MTT",48 h,0.073 µM
Cc1ccc(-n2c(SCC(=O)NNC(=O)Nc3c(C)cccc3C)nc3ccccc3c2=O)cc1,,,18.7 ± 1.4 µM
COc1cccc(/C=C/c2nc3ccccc3[nH]c2=O)c1OC,"cell growth or viability, MTT",72 h,24.9 µM
N#CC(=Cc1ccco1)C(=O)Nc1nnc(NC(=O)c2ccccc2)s1,"cell growth or viability, MTT",48 h,52.6 µM
O=c1[nH]c2ccccc2nc1/C=C/c1ccco1,"cell growth or viability, MTT",72 h,> 50 µM
COc1ccc(NC(=O)NNC(=O)CSc2nc3ccccc3c(=O)n2-c2ccc(OC)cc2)cc1,,,> 100 µM
O=c1c(/C=C/c2ccccc2)nc2ccccc2n1Cc1ccccc1,"cell growth or viability, MTT",72 h,> 50 µM
N=c1c2cnn(C(=O)CNc3ccc(F)cc3)c2ncn1N[C@@H]1OC[C@@H](O)[C@H](O)[C@H]1O,"cell growth or viability, MTT",48 h,0.093 µM
COc1cc(OC)c(/C=N/NC(=O)c2ccc(-c3cc(OC)c(OC)c(OC)c3)nc2C)c(OC)c1,"cell growth or viability, MTT",,10.8 µM
COc1cc(O)c2c(c1)O[C@H](c1ccc(O)c(OC)c1)[C@@H](O)C2=O,"cell growth or viability, MTT",48 h,33 µg/mL
Cc1ccc(-c2cc(-c3c(Cl)cccc3Cl)c3c(=O)n(C)c(=O)n(C)c3n2)cc1,"cell growth or viability, MTT",48 h,< 5 µM
Cn1c(=O)c(/C=C/c2ccccc2)nc2ccccc21,"cell growth or viability, MTT",72 h,7.04 µM
O=C(CSc1nc2ccccc2c(=O)n1-c1ccc(Cl)cc1)NNC(=O)Nc1ccccc1,,,9.52 ± 0.8 µM
COC(CSc1nc2c3cnn(C(=O)CNc4ccc(F)cc4)c3ncn2n1)OC,"cell growth or viability, MTT",48 h,0.071 µM
N#CC(=Cc1ccc(Cl)cc1)C(=O)Nc1nnc(NC(=O)c2ccccc2)s1,"cell growth or viability, MTT",48 h,16.2 µM
COC(CSc1nc2c3cnn(C(=O)CNc4ccc(C)cc4)c3ncn2n1)OC,"cell growth or viability, MTT",48 h,0.51 µM
C=CC(=O)Nc1nc(-c2ccc(O)cc2)cs1,"cell viability, MTT",72 h,12.5 µM
CC1(C)CC[C@]2(C(=O)O)CC[C@]3(C)C(=CC[C@@H]4[C@@]5(C)CC[C@H](O)C(C)(C)[C@@H]5CC[C@]43C)[C@@H]2C1,"cell growth or viability, resazurin",96 h,2.33 µg/mL
CN(C)C/C=C/C(=O)Nc1cc2c(Nc3ccc(F)c(Cl)c3)ncnc2cc1O[C@H]1CCOC1,,48 h,10 ± 0.47 µM
COc1cc(-c2ccc(C(=O)N/N=C/c3ccncc3)c(C)n2)cc(OC)c1OC,"cell growth or viability, MTT",,13.3 µM
N#CC(=Cc1ccc([N+](=O)[O-])cc1)C(=O)Nc1nnc(NC(=O)c2ccccc2)s1,"cell growth or viability, MTT",48 h,51.4 µM
Cc1ccc(NCC(=O)n2ncc3c(=N)n(N[C@@H]4OC[C@@H](O)[C@H](O)[C@H]4O)cnc32)cc1,"cell growth or viability, MTT",48 h,0.099 µM
N#Cc1c(Nc2ccccc2)n2nc(NC(=O)c3ccccc3)sc2nc1=O,"cell growth or viability, MTT",48 h,17 µM
COc1cc(-c2ccc(-c3nnc(SCCCBr)o3)c(C)n2)cc(OC)c1OC,"cell growth or viability, MTT",,20.4 µM
CN1CCC2(CC1)C/C(=N\N=C\c1ccc(Cl)cc1)c1ccccc1O2,,48 h,13.5 ± 0.57 µM
COc1cc(-c2ccc(-c3nnc(SCC4CCCCC4)o3)c(C)n2)cc(OC)c1OC,"cell growth or viability, MTT",,17.4 µM
N#CC(C(=O)Nc1nnc(NC(=O)c2ccccc2)s1)=C1Nc2ccccc2O1,"cell growth or viability, MTT",48 h,< 10 µM
COc1ccc(-n2c(SCC(=O)NNC(=O)Nc3c(C)cccc3C)nc3ccccc3c2=O)cc1,,,> 100 µM
Nc1nnc(NC(=O)c2ccccc2)s1,"cell growth or viability, MTT",48 h,15.3 µM
O=c1[nH]c2ccccc2nc1/C=C/c1ccccc1F,"cell growth or viability, MTT",72 h,> 50 µM
N=c1oc2ccccc2cc1C(=O)Nc1nnc(NC(=O)c2ccccc2)s1,"cell growth or viability, MTT",48 h,15.8 µM
O=c1[nH]c2ccccc2nc1/C=C/c1ccc(C(F)(F)F)cc1,"cell growth or viability, MTT",72 h,> 50 µM
N#CC(C(=O)Nc1nnc(NC(=O)c2ccccc2)s1)=C1SC(=O)CN1c1ccccc1,"cell growth or viability, MTT",48 h,91.3 µM
COc1ccccc1/C=N/NC(=O)c1ccc(-c2cc(OC)c(OC)c(OC)c2)nc1C,"cell growth or viability, MTT",,7.19 µM

# A few entries again:
Compound,assay,conditions,IC50
Cc1ccc(-n2c(SCC(=O)NNC(=O)Nc3c(C)cccc3C)nc3ccccc3c2=O)cc1,,,18.7 ± 1.4 µM
O=c1[nH]c2ccccc2nc1/C=C/c1ccco1,"cell growth or viability, MTT",72 h,> 50 µM
COc1cc(-c2ccc(-c3nnc(SCC4CCCCC4)o3)c(C)n2)cc(OC)c1OC,"cell growth or viability, MTT",,17.4 µM
